Published values collected from several papers.
± marks the error that the study gave.
UniProt P51956, sequence (whole entry, looked up): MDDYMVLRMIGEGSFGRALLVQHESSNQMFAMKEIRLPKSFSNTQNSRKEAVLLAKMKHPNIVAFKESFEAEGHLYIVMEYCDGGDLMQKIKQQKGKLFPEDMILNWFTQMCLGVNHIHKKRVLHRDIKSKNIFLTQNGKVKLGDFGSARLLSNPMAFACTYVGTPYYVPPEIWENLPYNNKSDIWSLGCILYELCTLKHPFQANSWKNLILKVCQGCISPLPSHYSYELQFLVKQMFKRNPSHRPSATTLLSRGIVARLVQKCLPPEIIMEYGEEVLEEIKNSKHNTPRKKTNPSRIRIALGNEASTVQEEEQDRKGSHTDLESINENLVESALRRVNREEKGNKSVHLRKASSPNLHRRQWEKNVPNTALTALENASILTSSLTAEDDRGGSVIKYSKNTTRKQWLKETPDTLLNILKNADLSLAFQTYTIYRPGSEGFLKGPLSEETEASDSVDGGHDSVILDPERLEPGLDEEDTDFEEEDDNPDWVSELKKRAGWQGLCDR
UniProt Q8NCC3, sequence (whole entry, looked up): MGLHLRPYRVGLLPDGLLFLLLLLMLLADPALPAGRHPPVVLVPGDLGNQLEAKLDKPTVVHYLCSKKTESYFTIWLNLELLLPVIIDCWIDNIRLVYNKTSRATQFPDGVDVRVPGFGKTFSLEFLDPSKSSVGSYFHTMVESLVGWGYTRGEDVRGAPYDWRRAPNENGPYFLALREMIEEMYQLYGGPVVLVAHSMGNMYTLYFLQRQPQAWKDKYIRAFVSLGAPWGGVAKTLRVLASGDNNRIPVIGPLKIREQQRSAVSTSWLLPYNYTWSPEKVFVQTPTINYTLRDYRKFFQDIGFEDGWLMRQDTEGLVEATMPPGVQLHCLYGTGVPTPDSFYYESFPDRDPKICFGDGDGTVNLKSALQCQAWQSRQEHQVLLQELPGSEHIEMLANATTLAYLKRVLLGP
UniProt P20815, sequence (whole entry, looked up): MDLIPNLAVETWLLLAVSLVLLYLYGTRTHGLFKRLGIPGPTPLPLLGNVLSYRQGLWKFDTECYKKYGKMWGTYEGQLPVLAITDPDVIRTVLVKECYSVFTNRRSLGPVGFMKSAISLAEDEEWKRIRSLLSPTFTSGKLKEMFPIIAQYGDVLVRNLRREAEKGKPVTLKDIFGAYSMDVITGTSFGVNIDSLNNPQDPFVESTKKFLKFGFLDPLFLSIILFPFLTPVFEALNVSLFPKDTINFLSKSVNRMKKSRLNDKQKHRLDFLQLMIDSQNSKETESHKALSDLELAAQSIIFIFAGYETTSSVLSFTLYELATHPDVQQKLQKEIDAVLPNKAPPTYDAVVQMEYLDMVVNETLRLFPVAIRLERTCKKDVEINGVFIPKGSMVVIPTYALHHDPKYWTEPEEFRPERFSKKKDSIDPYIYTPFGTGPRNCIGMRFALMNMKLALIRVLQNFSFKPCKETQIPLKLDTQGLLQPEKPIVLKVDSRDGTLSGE
UniProt Q92731, sequence (whole entry, looked up): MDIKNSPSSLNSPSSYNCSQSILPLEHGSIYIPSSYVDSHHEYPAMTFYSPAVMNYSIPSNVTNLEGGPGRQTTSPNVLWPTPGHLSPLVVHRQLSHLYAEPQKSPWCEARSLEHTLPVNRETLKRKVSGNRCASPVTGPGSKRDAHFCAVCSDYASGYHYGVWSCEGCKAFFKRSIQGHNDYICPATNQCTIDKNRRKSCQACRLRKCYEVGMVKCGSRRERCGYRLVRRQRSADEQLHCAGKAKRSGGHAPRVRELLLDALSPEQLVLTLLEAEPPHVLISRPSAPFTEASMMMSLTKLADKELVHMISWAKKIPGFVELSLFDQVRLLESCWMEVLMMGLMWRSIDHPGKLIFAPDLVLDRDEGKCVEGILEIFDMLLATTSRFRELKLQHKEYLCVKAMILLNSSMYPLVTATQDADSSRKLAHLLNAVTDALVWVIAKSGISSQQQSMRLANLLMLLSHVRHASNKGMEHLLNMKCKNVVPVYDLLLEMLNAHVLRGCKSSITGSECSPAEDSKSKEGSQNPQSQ

Cc1cc(C(=O)NC(C)(C)COc2cccc3c2C(N)=NS(=O)(=O)N3)cc(C)n1 gave a revertant ratio of 1.1 (Salmonella typhimurium; Ames test, confirmatory; TA98; 100 µg/plate; relative to: solvent control).
COc1cc(C(=O)OCCCN2CCCN(CCCOC(=O)c3cc(OC)c(OC)c(OC)c3)CC2)cc(OC)c1OC gave a CC50 of 28.2 µM (African green monkey cells; 5 days).
With COC(=O)[C@H]1[C@@H](OC(=O)c2ccccc2)C[C@@H]2CC[C@H]1N2C the stability bias was -16.2% (rat, whole blood; 10 nM, 4 months, -80 °C, long-term storage).
CC[C@H](C)[C@H](NC(=O)[C@H](Cc1ccccc1)NC(=O)[C@H](CCC(=O)O)NC(=O)[C@H](CCCNC(=N)N)NC(=O)[C@H](C)NC(=O)[C@H](C)NC(=O)[C@H](CCC(N)=O)NC(=O)[C@H](CCC(=O)O)NC(=O)[C@H](CCC(=O)O)NC(=O)[C@H](CC(C)C)NC(=O)[C@H](Cc1ccc(O)cc1)NC(=O)[C@H](CO)NC(=O)[C@H](CO)NC(=O)[C@@H](NC(=O)[C@H](CC(=O)O)NC(=O)[C@H](CO)NC(=O)[C@@H](NC(=O)[C@H](Cc1ccccc1)NC(=O)[C@@H](NC(=O)CNC(=O)[C@H](CCC(=O)O)NC(=O)[C@H](C)NC(=O)CCc1c[nH]cn1)[C@@H](C)O)[C@@H](C)O)C(C)C)C(=O)N[C@@H](C)C(=O)N[C@@H](Cc1c[nH]c2ccccc12)C(=O)N[C@@H](CC(C)C)C(=O)N[C@H](C(=O)N[C@@H](CCCNC(=N)N)C(=O)NCC(=O)N[C@@H](CCCNC(=N)N)C(=O)N[C@@H](CCCCNC(=O)COCCOCCNC(=O)COCCOCCNC(=O)CC[C@H](NC(=O)CCCCCCCCCCCCCCCCC(=O)O)C(=O)O)C(=O)NCC(=O)NCC(=O)N[C@@H](CO)C(=O)N[C@@H](CCCCNc1c(NCCCCCN(O)C(=O)CCC(=O)NCCCCCN(O)C(=O)CCC(=O)NCCCCCN(O)C(C)=O)c(=O)c1=O)C(=O)O)C(C)C [zirconium-89 labelled] gave a tissue uptake of 0.18 %ID/g (gamma counting; rat, stomach-duodenum; subcutaneous, 3 nmol/kg, 4 h).
CN1CC[C@@H](c2c(O)cc(O)c3c(=O)cc(-c4ccc(C(F)(F)F)cc4Cl)oc23)[C@@H]1CO — result for “patients with adverse event”: 20% (measured: Constipation; AML; oral, 200 mg, intermittent dosing).
With COc1ccc(N2C(=O)N(c3c(C)cccc3Cl)Cc3cnc(Nc4ccc(C5CCN(C)CC5)cc4OC)nc32)nc1 the inhibition was 3.69% (Serine/threonine-protein kinase Nek3 (NEK3, Homo sapiens, UniProt P51956); kinase activity; 0.5 µM).
The remaining binding of C[C@H]1CN(c2n[nH]c3nc(N[C@H]4CC[C@H](NS(=O)(=O)CCC(F)(F)F)CC4)ncc23)CCO1 is reported as 0.98 (Splicing factor 3B subunit 3 (Homo sapiens, UniProt Q15393); Kinobeads competition, measured: SF3B3; 0.032 µM, unit not given; relative to: vehicle).
O=C(c1ccc(Cl)cc1)N1CCN2C(=O)N(OC(=O)N3CCOc4ccccc43)C(=O)C2C1 (stereo not shown) gave a median ratio of 1.13 (Lysosomal phospholipase A and acyltransferase (PLA2G15, Homo sapiens, UniProt Q8NCC3); enzyme activity, inhibitor, MS-based ABPP; SW-620 in situ; 10 µM, 2 h, 37 °C; relative to: compound over DMSO, lower = stronger inhibition).
The Cmax of O=C1c2c(O)c(=O)ccn2N([C@@H]2c3ccccc3SCc3c2ccc(F)c3F)[C@@H]2COCCN12 is reported as 167 ng/mL (BALB/c mouse; subcutaneous, 4 mg/kg q24h).
The CC50 of NC(CO)(CO)CCc1ccc(Sc2cccc(OCc3ccccc3)c2)cc1Cl is reported as 3.06 µM (African green monkey cells; 5 days).
CN1CC[C@]23c4c5ccc(O)c4O[C@H]2[C@@H](O[C@@H]2O[C@H](C(=O)O)[C@@H](O)[C@H](O)[C@H]2O)C=C[C@H]3[C@H]1C5 has a stability bias of -5.3% (rat whole blood; 500 nM, 4 h, room temperature).
With CCOC1O[C@H]([C@@H](COCc2ccccc2)OCc2ccccc2)[C@H](OCc2ccccc2)[C@H]1O (stereo partly shown) the CC50 was 17.4 µM (African green monkey cells; 5 days).
COc1cc(Nc2ncc(F)c(Nc3ccc4c(n3)NC(=O)C(C)(C)O4)n2)cc(OC)c1OC has an IC50 of over 10 µM (Estrogen receptor beta (ESR2, Homo sapiens, UniProt Q92731)).
COC(=O)[C@H]1[C@H]2C[C@@H]3c4[nH]c5cc(OC)ccc5c4CCN3C[C@H]2C[C@@H](OC(=O)c2cc(OC)c(OC)c(OC)c2)[C@@H]1OC gave a CC50 of 11 µM (African green monkey cells; 5 days).
For C[C@@H](O)[C@@H](CO)NC(=O)[C@@H](CCCNC(=N)N)NC(=O)[C@@H]1CCCN1C(=O)[C@@H]1CSSC[C@H](NC(=O)[C@H](Cc2ccccc2)NC(=O)CN2CCN(CC(=O)O)CCN(CC(=O)O)CCN(CC(=O)O)CC2)C(=O)N[C@@H](Cc2ccc(O)cc2)C(=O)N[C@@H](Cc2ccccc2)C(=O)N[C@@H](CCC(N)=O)C(=O)N[C@@H](CC(N)=O)C(=O)N1 [gallium-68 labelled], the tissue uptake was 7.42 %ID/g (Wistar rat, kidneys; intravenous, 8 MBq, 30 min, group mean).
O=c1ccc2ccccc2o1 gave a chance response of 0.04% (NHEK; cell count; concentration not given, 24 h, AhR translocation panel).
With CC(=O)Oc1ccc2c3c1O[C@H]1[C@@H](OC(C)=O)C=C[C@H]4[C@@H](C2)N(C)CC[C@@]341 the stability bias was -7.67% (rat whole blood; 500 nM, 4 h, room temperature).
For COc1cc2c(Oc3ccc4[nH]c(C)cc4c3F)ccnc2cc1OCC1(N)CC1, “grade 1 or 2 Thrombocytopenia” read 26.7% (paediatric recurrent refractory sarcoma; 8 mg/kg).
CC(C)CC(=O)OC[C@H]1O[C@@](C#N)(c2ccc3c(N)ncnn23)[C@H](O)[C@@H]1O gave an intrinsic clearance of 0.695 ± 0.0269 µL/min/pmol (Cytochrome P450 3A5 (CYP3A5, Homo sapiens, UniProt P20815); metabolic stability; recombinant enzyme; 1 µM).
